Assay results pooled from the literature.
Numbered parts are unrelated; each lists some results of a single study. Positions count from the first letter of the parent shown.

Block 1 — technique: universal PBM; form: double-stranded DNA, one strand shown; sample: in vitro; tested at: not given; reading: higher = stronger binding
Target: Sal-like protein 4, full length isoform B (SALL4, Homo sapiens, UniProt Q9UJQ4-2, residues 1-616)
Setting: 8-mer, flanks averaged, mean of replicates
Oligonucleotide | E-score
GGTAGGGA | -0.142
CCACCACA | 0.0391
CTTGTATC | 0.126
CGGTCTCC | -0.382
CACGCATC | -0.0541
ACAAGTAA | 0.224
AGAAACAG | 0.022
AGATCACC | -0.0706
AAACCCCG | -0.0719

Block 2 — target: CCND2, cyclin fold, Cln2 fusion (human); technique: yeast growth competition, sequencing; sample: yeast; setting: strong parent motif; baseline: not given; reading: higher = stronger binding
Starting sequence: E2F1 docking peptide (human); PPVKRRLDFETDH
Substitution | normalised enrichment score
PPVKRRLDKETDH [F9K] | 0.239
PPVKRCLDFETDH [R6C] | 1.03
PPVKRRLDFVTDH [E10V] | 1.19
PPVKIRLDFETDH [R5I] | 0.506
PPAKRRLDFETDH [V3A] | 1.69
PPVKARLDFETDH [R5A] | 0.43
PPVYRRLDFETDH [K4Y] | 0.532
PPVKRRLDFEDDH [T11D] | 2.02

Block 3 — technique: protein binding microarray; form: double-stranded DNA, one strand shown; sample: in vitro; tested at: not given; baseline: not given; reading: higher = stronger binding
Target: Histone acetyltransferase KAT6A, winged helix 2, GST fusion (KAT6A, Homo sapiens, UniProt Q92794, residues 85-181)
Setting: 8-mer, flanks averaged, mean of 2 arrays, mostly near background
Construct (chain): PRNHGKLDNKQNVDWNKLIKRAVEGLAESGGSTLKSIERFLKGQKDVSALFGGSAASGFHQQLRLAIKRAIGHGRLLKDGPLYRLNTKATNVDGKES
Oligonucleotide | E-score
CCGCTGAG | 0.0233
TTTGAAAA | 0.191
CATGAGCA | 0.102
TACGCGTA | -0.0492
GGGTCAAA | 0.141
ATCATTAC | 0.00914
GGTGATAC | -0.0328
CCGTCCAC | 0.123
AGTGTAGA | -0.169

Single results of other studies
Molecule | target | assay | system | conditions | how to read | measurement | value
PhoQ, residues 284 288 289 292 302 303 GASLAW | PhoP, residues 12 14 15 18 19 TTLRV (Escherichia coli, UniProt P23836) | Sort-seq, item: YFP reporter | E. coli | PhoQ-PhoP variant library, with: 10 µM Mg2+ | baseline: high Mg2+ state, higher = stronger signaling | fold induction | 1.23
